Measurements gathered from unrelated publications.
Compare with care: the assays were run in different laboratories. Values joined by “and” are separate records of one study, mostly repeats; a detail may differ.
Organism: Staphylococcus aureus

CC[C@H](C)[C@@H]1NC(=O)[C@@H](CCCNC(=N)N)NC(=O)[C@@H](NC(=O)[C@@H](CC(C)C)NC(=O)[C@H](C)NC(=O)[C@H](C)NC(=O)[C@@H]2CCCN2C(=O)[C@@H](CC(C)C)NC(=O)[C@@H](NC(=O)[C@@H](CCCNC(=N)N)NC(=O)[C@@H](CC(C)C)NC(=O)[C@@H](CC(C)C)NC(=O)[C@@H](NC(=O)[C@@H](CCCNC(=N)N)NC(=O)[C@@H](CC(C)C)NC(=O)[C@@H](NC(=O)[C@@H](NC(=O)CNC(=O)[C@@H](CC(C)C)NC(=O)[C@@H](N)Cc2ccccc2)[C@@H](C)O)C(C)C)C(C)C)C(C)C)CSSC[C@@H](C(=O)O)NC(=O)[C@@H](CCCNC(=N)N)NC(=O)[C@@H](CCCNC(=N)N)NC(=O)[C@H](Cc2ccccc2)NC1=O — survival rate (MRSA NCTC 12493, Galleria mellonella larvae; 32 mg/kg, planktonic infection): 30%
CCCNC(=O)[C@@H]1Cc2ccc(O)c(c2)-c2cc(ccc2O)C[C@H](NC(=O)[C@H](NC(=O)[C@H](NC(=O)[C@H](CC(N)=O)NC(=O)[C@@H](Cc2ccc(O)cc2)NC(=O)[C@@H](CC(C)C)NC)c2ccccc2)c2ccc(O)cc2)C(=O)N1 — IC50 (bacterial growth): > 40 µM
N=C(N)NCCC[C@H](NC(=O)[C@H](CCCNC(=N)N)NC(=O)[C@H](CCCNC(=N)N)NC(=O)[C@H](CCC(N)=O)NC(=O)[C@H](CCCNC(=N)N)NC(=O)[C@H](CCCNC(=N)N)NC(=O)[C@H](CCCCN)NC(=O)[C@H](CCCCN)NC(=O)[C@H](CCCNC(=N)N)NC(=O)CNC(=O)[C@H](Cc1ccc(O)cc1)NC(=O)[C@H](Cc1ccccc1)NC(=O)[C@H](Cc1ccccc1)NC(=O)[C@H](Cc1ccccc1)NC(=O)OCC1c2ccccc2-c2ccccc21)C(=O)O — intracellular bacteria killed (colony counting; RAW264.7 29213 infected, 29213; 32 µM, 4 h): 98.3%
CC[C@H](C)[C@H](NC(=O)[C@H](CCCCN)NC(=O)[C@H](CCCCN)NC(=O)[C@H](Cc1ccccc1)NC(=O)[C@H](Cc1ccccc1)NC(=O)[C@H](CCCCN)NC(=O)[C@H](CCCCN)NC(=O)[C@H](Cc1ccccc1)NC(=O)[C@H](CCCNC(=N)N)NC(=O)[C@@H](N)CCCCN)C(=O)N[C@@H](CCCCN)C(=O)N[C@@H](CCCCN)C(=O)N[C@@H](CO)C(=O)N[C@H](C(=O)N[C@@H](CCCCN)C(=O)N[C@@H](CCCCN)C(=O)N[C@@H](CCCNC(=N)N)C(=O)N[C@H](C(=O)N[C@@H](CCCCN)C(=O)N[C@@H](CCCCN)C(=O)N[C@@H](CC(C)C)C(=O)N[C@@H](Cc1ccccc1)C(=O)N[C@@H](CCCCN)C(=O)N[C@@H](CCCCN)C(=O)N1CCC[C@H]1C(=O)N[C@@H](CCCNC(=N)N)C(=O)N[C@H](C(=O)N[C@H](C(=O)N1CCC[C@H]1C(=O)N[C@H](C(=O)N[C@@H](CO)C(=O)N[C@H](C(=O)N1CCC[C@H]1C(=O)N[C@@H](Cc1ccccc1)C(=O)O)[C@@H](C)CC)[C@@H](C)CC)[C@@H](C)CC)C(C)C)C(C)C)C(C)C — MBC (ATCC 29213; 20 h, 37 °C): 16 µg/mL
CC[C@H](C)[C@@H]1NC(=O)[C@H](CO)NC(=O)[C@H](CCCCN)NC(=O)[C@@H]2CSSC[C@@H](C(=O)N[C@@H](Cc3ccc(O)cc3)C(N)=O)NC(=O)[C@H](CCCCN)NC(=O)[C@@H]3CSSC[C@H](NC(=O)[C@H](CCCNC(=N)N)NC(=O)[C@H](CC(C)C)NC(=O)[C@H](CC(=O)O)NC(=O)[C@H](CC(=O)O)NC(=O)[C@H](CCC(=O)O)NC(=O)[C@H](CC(N)=O)NC(=O)[C@H](Cc4c[nH]c5ccccc45)NC(=O)[C@@H]4CCCN4C(=O)CNC(=O)[C@H](CC(N)=O)NC(=O)[C@@H](NC(=O)CNC(=O)[C@H](Cc4ccccc4)NC(=O)CN)CSSC[C@H](NC(=O)[C@H](Cc4ccc(O)cc4)NC(=O)CNC(=O)CNC(=O)[C@H](CCCCN)NC(=O)[C@H](Cc4ccc(O)cc4)NC(=O)CNC(=O)[C@H](CCCCN)NC1=O)C(=O)N[C@@H](C)C(=O)N[C@@H](CCCCN)C(=O)NCC(=O)NCC(=O)N[C@@H](Cc1ccccc1)C(=O)N[C@@H](C(C)C)C(=O)N3)C(=O)N[C@@H](Cc1c[nH]cn1)C(=O)N[C@@H](CC(N)=O)C(=O)N[C@@H](Cc1c[nH]cn1)C(=O)N2 — MBC (467; 24 h, 37 °C, 99.9% killing): 2 µM
Cc1ccc2nc(C)c(C(=O)NCc3ccccc3)n2c1 — inhibition zone (microbial growth; SG511; 2 mM): 0 mm
OB(O)c1ccc(C(F)(F)F)s1 — growth (OD600; USA300 fphE::Tn transposon mutant; 10 µM; baseline: wild type): 70.9% and 55.5% and 74.7% and 71.1% and 67.7% and 59.8%
CCC(=O)OCCSC[C@H](N)C(=O)N[C@H](CCN)C(=O)N[C@@H](CCN)C(=O)N[C@@H](CCN)C(=O)N[C@@H](CC(C)C)C(=O)N[C@H](Cc1ccccc1)C(=O)N[C@@H](CCN)C(=O)N[C@@H](CCN)C(=O)N[C@@H](CC(C)C)C(N)=O — MBC (ATCC 6538; 24 h, 37 °C): > 128 µM

A few entries again:
CC[C@H](C)[C@H](NC(=O)[C@H](CCCCN)NC(=O)[C@H](CCCCN)NC(=O)[C@H](Cc1ccccc1)NC(=O)[C@H](Cc1ccccc1)NC(=O)[C@H](CCCCN)NC(=O)[C@H](CCCCN)NC(=O)[C@H](Cc1ccccc1)NC(=O)[C@H](CCCNC(=N)N)NC(=O)[C@@H](N)CCCCN)C(=O)N[C@@H](CCCCN)C(=O)N[C@@H](CCCCN)C(=O)N[C@@H](CO)C(=O)N[C@H](C(=O)N[C@@H](CCCCN)C(=O)N[C@@H](CCCCN)C(=O)N[C@@H](CCCNC(=N)N)C(=O)N[C@H](C(=O)N[C@@H](CCCCN)C(=O)N[C@@H](CCCCN)C(=O)N[C@@H](CC(C)C)C(=O)N[C@@H](Cc1ccccc1)C(=O)N[C@@H](CCCCN)C(=O)N[C@@H](CCCCN)C(=O)N1CCC[C@H]1C(=O)N[C@@H](CCCNC(=N)N)C(=O)N[C@H](C(=O)N[C@H](C(=O)N1CCC[C@H]1C(=O)N[C@H](C(=O)N[C@@H](CO)C(=O)N[C@H](C(=O)N1CCC[C@H]1C(=O)N[C@@H](Cc1ccccc1)C(=O)O)[C@@H](C)CC)[C@@H](C)CC)[C@@H](C)CC)C(C)C)C(C)C)C(C)C — MBC (ATCC 29213; 20 h, 37 °C): 16 µg/mL
